Measurements from different studies.
Parts stem from different laboratories: compare values within a part only. Substitutions count along the parent as printed.
Sequence of UniProt Q38829 (whole entry, looked up): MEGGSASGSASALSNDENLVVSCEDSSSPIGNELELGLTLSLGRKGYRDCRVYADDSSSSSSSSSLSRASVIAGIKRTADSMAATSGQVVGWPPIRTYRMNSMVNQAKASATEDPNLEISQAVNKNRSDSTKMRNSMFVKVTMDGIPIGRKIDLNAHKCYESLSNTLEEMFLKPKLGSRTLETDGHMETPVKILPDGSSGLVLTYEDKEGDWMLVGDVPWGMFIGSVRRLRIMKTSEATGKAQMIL
Sequence of UniProt O24410 (whole entry, looked up): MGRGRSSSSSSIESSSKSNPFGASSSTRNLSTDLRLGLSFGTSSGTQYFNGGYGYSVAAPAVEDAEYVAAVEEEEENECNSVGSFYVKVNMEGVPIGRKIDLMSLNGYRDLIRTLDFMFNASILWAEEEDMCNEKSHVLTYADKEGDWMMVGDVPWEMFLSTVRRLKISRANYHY
Sequence of UniProt Q9FGV1 (whole entry, looked up): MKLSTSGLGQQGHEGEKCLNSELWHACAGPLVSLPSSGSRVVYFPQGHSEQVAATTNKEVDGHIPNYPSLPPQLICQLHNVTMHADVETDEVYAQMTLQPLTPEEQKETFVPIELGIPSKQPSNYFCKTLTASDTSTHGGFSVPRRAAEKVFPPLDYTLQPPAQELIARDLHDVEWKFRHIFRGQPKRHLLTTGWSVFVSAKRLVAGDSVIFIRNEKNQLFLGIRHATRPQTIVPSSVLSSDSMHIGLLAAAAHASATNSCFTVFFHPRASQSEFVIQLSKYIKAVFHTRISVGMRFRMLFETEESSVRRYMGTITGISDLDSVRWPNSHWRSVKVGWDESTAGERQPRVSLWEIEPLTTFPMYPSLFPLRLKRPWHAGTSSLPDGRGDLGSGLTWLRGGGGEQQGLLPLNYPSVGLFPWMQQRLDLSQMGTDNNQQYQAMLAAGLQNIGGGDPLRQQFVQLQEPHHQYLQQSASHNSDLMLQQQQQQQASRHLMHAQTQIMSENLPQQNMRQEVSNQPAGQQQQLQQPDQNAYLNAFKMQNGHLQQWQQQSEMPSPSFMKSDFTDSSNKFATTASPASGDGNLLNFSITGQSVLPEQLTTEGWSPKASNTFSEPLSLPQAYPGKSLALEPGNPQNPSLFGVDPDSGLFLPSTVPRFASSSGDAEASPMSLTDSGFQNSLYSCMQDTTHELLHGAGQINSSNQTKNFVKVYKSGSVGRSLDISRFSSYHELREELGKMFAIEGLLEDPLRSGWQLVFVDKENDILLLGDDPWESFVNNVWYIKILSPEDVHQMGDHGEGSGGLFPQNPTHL
Sequence of UniProt O24409 (whole entry, looked up): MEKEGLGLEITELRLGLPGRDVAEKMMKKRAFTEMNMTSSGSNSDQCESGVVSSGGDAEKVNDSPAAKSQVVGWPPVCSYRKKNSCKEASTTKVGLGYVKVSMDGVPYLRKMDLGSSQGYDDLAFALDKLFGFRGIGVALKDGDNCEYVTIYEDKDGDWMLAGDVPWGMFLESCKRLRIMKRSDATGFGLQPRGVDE
Sequence of UniProt Q9C966 (whole entry, looked up): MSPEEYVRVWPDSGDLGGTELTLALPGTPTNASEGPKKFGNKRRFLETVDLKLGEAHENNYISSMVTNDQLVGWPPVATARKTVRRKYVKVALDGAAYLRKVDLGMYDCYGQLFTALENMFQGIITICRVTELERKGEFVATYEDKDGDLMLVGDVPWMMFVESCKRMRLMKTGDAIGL

Set 1 — method: DHFR PCA, dose-response; medium: yeast; notes: Hill fit, mean, not affinity; with: (+)-ABA, dose series; direction: lower = more sensitive
Target: ABI1, truncated, D143A, DHFR fusion (Arabidopsis thaliana, UniProt P49597)
Parent: PYL1, truncated, DHFR fusion (Arabidopsis thaliana, UniProt Q8VZS8); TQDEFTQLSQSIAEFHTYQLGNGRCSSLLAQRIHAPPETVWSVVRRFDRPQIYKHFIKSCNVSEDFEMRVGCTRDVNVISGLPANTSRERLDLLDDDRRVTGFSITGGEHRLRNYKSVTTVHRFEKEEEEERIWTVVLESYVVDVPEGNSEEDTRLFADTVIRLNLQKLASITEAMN
The ABA EC50 of `Q167I` is reported as 5.44 µM.
For `F124E`, the ABA EC50 was 4.77 µM.
For `L156T`, the ABA EC50 was 0.527 µM.
The ABA EC50 of `S59Y` is reported as 19.9 µM.
`L164C` gave an ABA EC50 of 0.711 µM.
For `T173N`, the ABA EC50 was 59.6 µM.
The ABA EC50 of `N77P` is reported as 995 µM.
`I52M` has an ABA EC50 of 3.71 µM.
`R49M` has an ABA EC50 of 2.4 µM.
For `N77G`, the ABA EC50 was 4.29 µM.
The ABA EC50 of `L156A` is reported as 1.24 µM.
For `N114L`, the ABA EC50 was 646 µM.
The ABA EC50 of `E147A` is reported as 2.76 µM.
With `G21K` the ABA EC50 was 2.61 µM.
`F5N` gave an ABA EC50 of 7.18 µM.
The ABA EC50 of `S26T` is reported as 2.25 µM.
The ABA EC50 of `R32E` is reported as 3.55 µM.
With `A35W` the ABA EC50 was 822 µM.
`R24K` gave an ABA EC50 of 2.27 µM.
With `N61H` the ABA EC50 was 1.17 µM.
`D97K` gave an ABA EC50 of 2.28 µM.
With `T73Y` the ABA EC50 was 2.42 µM.
`Q10C` has an ABA EC50 of 3.12 µM.
The ABA EC50 of `V62R` is reported as 93.4 µM.
The ABA EC50 of `N85W` is reported as 7.48 µM.

Set 2 — Molecule: B1 (IAA2); method: two-hybrid; reference: out of 4 tests; direction: higher = firmer interaction
B1: IAA2 (Arabidopsis thaliana, UniProt P49678); chain MAYEKVNELNLKDTELCLGLPGRTEKIKEEQEVSCVKSNNKRLFEETRDEEESTPPTKTQIVGWPPVRSSRKNNNSVSYVKVSMDGAPYLRKIDLKTYKNYPELLKALENMFKVMIGEYCEREGYKGSGFVPTYEDKDGDWMLVGDVPWDMFSSSCKRLRIMKGSDAPALDSSL
The positive tests was 2 (IAA19 (Arabidopsis thaliana, UniProt O24409)).
ARF8 699-811 (Arabidopsis thaliana, UniProt Q9FGV1) — positive tests: 2.
The positive tests was 0 (IAA11 (Arabidopsis thaliana, UniProt Q38829); weak activation fusion).
The positive tests was 2 (IAA15 (Arabidopsis thaliana, UniProt Q9C966)).
The positive tests was 4 (IAA14 (Arabidopsis thaliana, UniProt Q38832)).
IAA20 (Arabidopsis thaliana, UniProt O24410); weak activation fusion — positive tests: 2.

Set 3 — target: CCNE1, cyclin fold, Cln2 fusion (human); method: yeast growth competition, sequencing; medium: yeast; notes: weak parent motif; reference: not given; direction: higher = stronger binding
Parent: MASTL docking peptide (human); PMIAKNLMCELDE
Under “normalised enrichment score”, `A4S` is recorded as -0.0816.
`L7K` — result for “normalised enrichment score”: 0.25.
`M8F` — result for “normalised enrichment score”: 0.0267.
Under “normalised enrichment score”, `M8N` is recorded as -0.251.
Under “normalised enrichment score”, `M2C` is recorded as -0.196.
For `D12Q`, “normalised enrichment score” read 0.0263.
Under “normalised enrichment score”, `M2A` is recorded as -0.217.
Under “normalised enrichment score”, `M2V` is recorded as 0.0916.
`K5G`: “normalised enrichment score” -0.253.
Under “normalised enrichment score”, `M2H` is recorded as -0.0218.
`M2L` — result for “normalised enrichment score”: 0.177.
For `M8V`, “normalised enrichment score” read 0.235.
`M8P`: “normalised enrichment score” -0.137.
`C9A`: “normalised enrichment score” 0.277.
`N6Q` — result for “normalised enrichment score”: 0.068.
`M2G` — result for “normalised enrichment score”: 0.306.
`L7S`: “normalised enrichment score” -0.0607.
`M8C` — result for “normalised enrichment score”: -0.246.
`C9L` — result for “normalised enrichment score”: 0.0499.
`K5V` — result for “normalised enrichment score”: -0.179.
Under “normalised enrichment score”, `E10Q` is recorded as 0.0776.
Under “normalised enrichment score”, `E10Y` is recorded as 0.273.
Under “normalised enrichment score”, `M8A` is recorded as -0.0453.

Set 4 — method: RNA Bind-n-Seq; molecule type: RNA; medium: in vitro; concentration: 100 nM; reference: input RNA pool; direction: higher = stronger binding
Target: RING finger protein unkempt homolog, zinc fingers 1-6, SBP tag (UNK, Homo sapiens, UniProt Q9C0B0, residues 30-357)
Sequence of UniProt Q9C0B0 (30-357, looked up): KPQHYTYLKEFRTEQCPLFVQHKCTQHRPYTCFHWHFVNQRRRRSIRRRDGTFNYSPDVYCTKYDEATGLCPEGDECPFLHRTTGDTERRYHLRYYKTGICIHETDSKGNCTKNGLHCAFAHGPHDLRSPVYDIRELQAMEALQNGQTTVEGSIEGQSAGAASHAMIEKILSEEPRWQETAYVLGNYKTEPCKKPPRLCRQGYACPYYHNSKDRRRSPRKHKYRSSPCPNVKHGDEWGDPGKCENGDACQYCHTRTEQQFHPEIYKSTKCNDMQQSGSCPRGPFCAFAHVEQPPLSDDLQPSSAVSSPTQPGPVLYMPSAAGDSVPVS
Notes: RNA with constant flanks, vertebrate orthologous sites, ends assumed
Shared flanks, not repeated: GGGAGUUCUACAGUCCGACGAUC … CAACAGAGGAUUGAGCAUCA
`ACCCCAGUGUGUGUACGUUCUUCACAUUCCUUUCUGUUGUGUUUGGGAGAAAAAGACUUCUCCGACUUUUCGAAGGUUCUCGAUUUAAUUCCAUGUUGUUUGGUUGCAUGAAGUUGCCCU` has a bound/input enrichment of 0.225 ratio.
`UCAGUCCCCUGGGCUGGGACGGAUUUUUUUUAACGUCUUGAAACUUAAAUUCUGUGCUUGUAGGAGACUGUAACCUUUUUGUCUUUUUUUUUUUUUUUUAACAAAACAACCUCCACCUCC` has a bound/input enrichment of 0.91 ratio.
The bound/input enrichment of `AUUCAAACCAGUGGUACCAUGGCCUCAUGUUGAAGGAGUAGAAGUGGACUUAGAGUCUAUUAGAAGAAAAAACAAGGCCAAAAAUGAACAAGAACACCAUGCUGGAGGAGAUUCCCAGAA` is reported as 0.337 ratio.
`CACUUAUAUUGUGGCAUAUAGUCAACAUGGAAGUUAGACCAGCUCGGCUGAUUUGAAAUUUAGAUUUUUUUAAUUAUGUACUGGGGACAGGUUUUUGUCGCUUUACAUUGCUUCCUAGUU` has a bound/input enrichment of 5.99 ratio.
`CCGAAAGGCCAAAUUCCCUCCUCCCUUCUACUGCUUCUACCAACUGGAAGCACAGAAAACUAGAAUUUCAUUUAUUUUGUUUUUUAAAAAUAUACGUUGAUUUCUUGUAACAUCCAAUAG` gave a bound/input enrichment of 0.653 ratio.
For `UUGUGGAAAAGGAGACGGGGAAAACUAGAUAGAUUCUCCCUUCCAAAAAUAUAUCCUGUUGUUAAUUGGGUGUGUAGAACUGGCUAAGAAUUUUUUUUUUUCAAAUGCUGCAUCACAAAG`, the bound/input enrichment was 0.748 ratio.
`ACGUAUCCCAGUUUACUGUGUUGAGUUGGCAUUGUACAGAAAUUAACAGCCAUAUUGGUCUAGAAAUGUUGAACUUAAUUUUUUUCCAUUUGUACAGGGGUAACGCACUGUAUUAAAUAU` gave a bound/input enrichment of 0.663 ratio.
With `CGUAGCAUCGAGAGUGUGUGUGUUCUCACACUUGUACUCUCACAAAGAAGAGAGCUCACAUUGGUCCUUACACAACCGAUGAUGCUGUUCUGUUUCUGCUUUCUAUUUUUACAUAUGCAU` the bound/input enrichment was 0.744 ratio.
For `UAUAAGAACUCUUGCAGUCUUAGAUGUUAUAAAAAUAUAUAUCUGAAUUGUAAGAGUUGUUAGCACAAGUUUUUUUUUUUUUUUUUUUUAAGCACUUGUUUUGGGUACAAGGCAUUUCUG`, the bound/input enrichment was 0.926 ratio.
With `AACUAAAGGAGUUAGCAUCUUUAUUUUUAUAUCAAAGAUAAAGGUUAUUUUGGAAAUUAUUAGGGUUUUUACAUAACUCUGAAGUCUGUUGCUUUUGUAAACAAAUCGUUCAAUCUUAGG` the bound/input enrichment was 0.341 ratio.
With `GCUGUUAAUGCACUGUUAUACCAGGCAUUGUCUGAAGUUAGUGUAAUCUAGAAGAUUUUAUAGUUUUAUUUUAAUGAAGUAUGAAUCGGAACAAAACUGUUAGGAGUAUGUAGUCUUUUA` the bound/input enrichment was 1.79 ratio.

Set 5 — method: universal PBM; molecule type: double-stranded DNA, one strand shown; medium: in vitro; concentration: 600 nM; direction: higher = stronger binding
Target: Sal-like protein 4, full length isoform A (SALL4, Homo sapiens, UniProt Q9UJQ4, residues 1-1053)
Sequence of UniProt Q9UJQ4 (whole entry, looked up): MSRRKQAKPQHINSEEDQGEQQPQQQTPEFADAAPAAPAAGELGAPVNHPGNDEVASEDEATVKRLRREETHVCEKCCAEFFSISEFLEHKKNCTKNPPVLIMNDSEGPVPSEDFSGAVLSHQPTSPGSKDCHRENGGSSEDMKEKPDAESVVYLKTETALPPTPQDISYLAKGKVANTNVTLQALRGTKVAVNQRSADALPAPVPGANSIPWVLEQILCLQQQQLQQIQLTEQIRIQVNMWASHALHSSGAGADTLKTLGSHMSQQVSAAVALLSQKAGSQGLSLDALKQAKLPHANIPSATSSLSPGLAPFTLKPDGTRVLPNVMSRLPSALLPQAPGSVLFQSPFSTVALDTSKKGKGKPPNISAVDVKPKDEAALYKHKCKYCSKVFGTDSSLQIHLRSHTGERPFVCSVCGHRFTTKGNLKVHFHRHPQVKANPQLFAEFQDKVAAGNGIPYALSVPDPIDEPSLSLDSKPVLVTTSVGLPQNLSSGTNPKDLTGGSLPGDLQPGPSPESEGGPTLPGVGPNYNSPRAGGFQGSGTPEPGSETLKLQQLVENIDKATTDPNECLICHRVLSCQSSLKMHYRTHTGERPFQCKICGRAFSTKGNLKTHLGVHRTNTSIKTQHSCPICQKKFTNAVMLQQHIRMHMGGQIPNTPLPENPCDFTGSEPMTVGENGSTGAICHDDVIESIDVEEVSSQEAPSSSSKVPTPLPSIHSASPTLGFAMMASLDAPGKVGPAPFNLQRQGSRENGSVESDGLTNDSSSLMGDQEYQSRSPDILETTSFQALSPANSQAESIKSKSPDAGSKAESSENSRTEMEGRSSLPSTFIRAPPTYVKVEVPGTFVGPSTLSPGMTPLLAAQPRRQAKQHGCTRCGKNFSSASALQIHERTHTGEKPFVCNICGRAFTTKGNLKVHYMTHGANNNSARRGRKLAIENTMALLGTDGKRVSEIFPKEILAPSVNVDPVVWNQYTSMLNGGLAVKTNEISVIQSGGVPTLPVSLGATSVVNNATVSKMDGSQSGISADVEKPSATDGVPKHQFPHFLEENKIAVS
Notes: 8-mer, flanks averaged, mean of replicates
`CGTATGGC` gave an E-score of 0.0907.
With `TCATCCAA` the E-score was 0.129.
`AATGCGGC` gave an E-score of -0.234.
The E-score of `ACCCTCTC` is reported as -0.251.
For `AACAAACT`, the E-score was 0.206.
`AACCAAGC` has an E-score of -0.113.
With `CCGTGCTA` the E-score was -0.153.
With `GCTGCTTA` the E-score was -0.0517.
For `AGATTCAA`, the E-score was 0.134.
For `CAAGTGAC`, the E-score was -0.0652.
With `CCGTTCCG` the E-score was -0.177.
With `CGAAGTGC` the E-score was -0.00843.
With `AGCCGTGC` the E-score was -0.24.
The E-score of `AGCATTTG` is reported as 0.0642.
With `CCGGGTTA` the E-score was -0.276.
With `AGGTGGGG` the E-score was -0.118.
`CAGTTCTA` gave an E-score of 0.0336.
For `GGGGCGAC`, the E-score was -0.333.
`ACTTGCAA` gave an E-score of 0.196.

For quick reference, copied from above (set 4):
For `UAUAAGAACUCUUGCAGUCUUAGAUGUUAUAAAAAUAUAUAUCUGAAUUGUAAGAGUUGUUAGCACAAGUUUUUUUUUUUUUUUUUUUUAAGCACUUGUUUUGGGUACAAGGCAUUUCUG`, the bound/input enrichment was 0.926 ratio.
`UCAGUCCCCUGGGCUGGGACGGAUUUUUUUUAACGUCUUGAAACUUAAAUUCUGUGCUUGUAGGAGACUGUAACCUUUUUGUCUUUUUUUUUUUUUUUUAACAAAACAACCUCCACCUCC` has a bound/input enrichment of 0.91 ratio.
`CCGAAAGGCCAAAUUCCCUCCUCCCUUCUACUGCUUCUACCAACUGGAAGCACAGAAAACUAGAAUUUCAUUUAUUUUGUUUUUUAAAAAUAUACGUUGAUUUCUUGUAACAUCCAAUAG` gave a bound/input enrichment of 0.653 ratio.
For `UUGUGGAAAAGGAGACGGGGAAAACUAGAUAGAUUCUCCCUUCCAAAAAUAUAUCCUGUUGUUAAUUGGGUGUGUAGAACUGGCUAAGAAUUUUUUUUUUUCAAAUGCUGCAUCACAAAG`, the bound/input enrichment was 0.748 ratio.
With `CGUAGCAUCGAGAGUGUGUGUGUUCUCACACUUGUACUCUCACAAAGAAGAGAGCUCACAUUGGUCCUUACACAACCGAUGAUGCUGUUCUGUUUCUGCUUUCUAUUUUUACAUAUGCAU` the bound/input enrichment was 0.744 ratio.
With `AACUAAAGGAGUUAGCAUCUUUAUUUUUAUAUCAAAGAUAAAGGUUAUUUUGGAAAUUAUUAGGGUUUUUACAUAACUCUGAAGUCUGUUGCUUUUGUAAACAAAUCGUUCAAUCUUAGG` the bound/input enrichment was 0.341 ratio.
`ACGUAUCCCAGUUUACUGUGUUGAGUUGGCAUUGUACAGAAAUUAACAGCCAUAUUGGUCUAGAAAUGUUGAACUUAAUUUUUUUCCAUUUGUACAGGGGUAACGCACUGUAUUAAAUAU` gave a bound/input enrichment of 0.663 ratio.
`ACCCCAGUGUGUGUACGUUCUUCACAUUCCUUUCUGUUGUGUUUGGGAGAAAAAGACUUCUCCGACUUUUCGAAGGUUCUCGAUUUAAUUCCAUGUUGUUUGGUUGCAUGAAGUUGCCCU` has a bound/input enrichment of 0.225 ratio.
`CACUUAUAUUGUGGCAUAUAGUCAACAUGGAAGUUAGACCAGCUCGGCUGAUUUGAAAUUUAGAUUUUUUUAAUUAUGUACUGGGGACAGGUUUUUGUCGCUUUACAUUGCUUCCUAGUU` has a bound/input enrichment of 5.99 ratio.
